Earlier results that unrelated publications cite.
Compare with care: the assays were run in different laboratories. Several values in a cell are separate wells, animals, samples, runs or records. ± marks the error that the study gave. Values after ≈ are worked out from the molar mass of the structure shown.
Sequence of UniProt P35372 (whole entry, looked up): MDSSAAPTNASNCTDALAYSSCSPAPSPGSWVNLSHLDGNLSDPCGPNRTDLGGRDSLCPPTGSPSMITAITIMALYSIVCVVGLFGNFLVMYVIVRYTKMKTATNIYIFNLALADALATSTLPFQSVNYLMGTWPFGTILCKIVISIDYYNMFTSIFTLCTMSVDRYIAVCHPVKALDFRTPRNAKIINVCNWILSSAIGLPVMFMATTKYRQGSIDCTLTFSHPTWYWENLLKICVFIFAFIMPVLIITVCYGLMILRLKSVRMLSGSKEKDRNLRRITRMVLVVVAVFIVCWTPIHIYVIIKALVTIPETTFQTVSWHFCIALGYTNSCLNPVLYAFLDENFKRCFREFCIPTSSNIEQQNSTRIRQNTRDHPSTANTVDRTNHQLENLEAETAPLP

O=C(CCCOc1cccc(Br)c1)N[C@H]1CCSC1=O
reduction (Pseudomonas aeruginosa; Caenorhabditis elegans fast killing; PA14; 50 µM): 50%

CCOC(=O)[C@H]1c2ccc3ccccc3c2O[C@@H]2c3ccsc3CCN21
relative fluorescence index (Staphylococcus aureus; efflux pump inhibition; ATCC 25923; 100 µM; relative to: untreated cells): 1.82

CN1CCN(C(=O)c2cccc(CC(O)Cn3c4ccc(Br)cc4c4cc(Br)ccc43)c2)CC1 (centres unmarked)
IC50 (Plasmodium; parasite growth): 2340 nM

CCCCCCCCCC(=O)CC(=O)Nc1cccc(OC)c1
inhibition (Pseudomonas aeruginosa; pyocyanin production; PAO1; 200 µM): 93%

Cc1sc(-c2ccc(C(F)(F)F)cc2)nc1-c1nn[nH]c1C#N
HbA1c at end of treatment (ZDF rat; 4 mg/kg/day, 6 weeks): 9.14 ± 0.18%

CNC(C)(C)CCC(O)Cn1c2ccccc2c2ccccc21 (centres unmarked)
IC50 (Plasmodium; parasite growth): 2080 nM

c1ccc2c3c([nH]c2c1)C(c1c[nH]c2ncccc12)NCC3 (centres unmarked)
relative fluorescence index (Escherichia coli; efflux pump inhibition; AG100 AcrAB-TolC expressing; 50 µM; relative to: untreated cells): 0.01

CCCCCCCCCC(=O)CC(=O)Nc1ccccc1
pyocyanin inhibition (Pseudomonas aeruginosa; PAO1; 50 µM): 70%

CCN(CC)CC#CCNc1ccnc2cc(Cl)ccc12
IC50 (Plasmodium falciparum; parasite growth, SYBR Green I; K1): 47.9 nM and 52.1 nM

CN1CCOCC1CC(O)Cn1c2ccc(Br)cc2c2cc(Br)ccc21 (centres unmarked)
IC50 (Plasmodium; parasite growth): 2080 nM

COc1cccc(COc2ccc(Nc3ncnc4ccc(-c5ccc(S(=O)(=O)N6CCOCC6)cc5)cc34)cc2Cl)c1
EC50 (Trypanosoma brucei; parasite growth): 1400 nM

CCn1c(C)c(CC(=O)N[C@@H](Cc2ccccc2)C(=O)N(C)c2ccccc2)c2ccccc21
EC50 (HIV-1; viral replication; TZM-GFP, wild type): 250 ± 100 nM

O=S(=O)(c1ccc(-c2ccc3ncnc(Nc4ccc(OCc5cccc(Br)c5)c(Cl)c4)c3c2)cc1)N1CCOCC1
EC50 (Trypanosoma brucei; parasite growth): 680 nM

Cc1ccc2c(c1)nc(CCN1C(=O)c3cccc4cccc(c34)C1=O)n2-c1ccncc1
AUC(0-t) (Sprague-Dawley rat; intravenous, 2.5 mg/kg): 1100 ng·h/mL

O=S(=O)(c1ccc(-c2ccc3ncnc(Nc4ccccc4)c3c2)cc1)N1CCOCC1
EC50 (Trypanosoma brucei; parasite growth): 1400 nM

CCCCCCCCCCCCn1nnc(CC(=O)O)n1
inhibition (Pseudomonas aeruginosa; pyocyanin production; PAO1; 10 µM, 36): 40%

COc1ccc(Nc2nc(Nc3ccc(OCC[18F])cc3)ncc2Br)cc1
tumour to tissue ratio (S180 tumour-bearing mice; intravenous, 15 min; relative to: tumour over blood): 0.78

FC(F)(F)C(F)(F)c1cc(-c2cccnc2)n[nH]1
Ki (Plasmodium falciparum formate-nitrite transporter; binding, FCCS; isolated protein): > 80000 nM

CC(C)C[C@@H](NC(=O)[C@H](C)NC(=O)CNC(=O)[C@@H](NC=O)C(C)C)C(=O)N[C@@H](C)C(=O)N[C@@H](C(=O)N[C@H](C(=O)N[C@@H](C(=O)N[C@@H](Cc1c[nH]c2ccccc12)C(=O)N[C@H](CC(C)C)C(=O)N[C@@H](Cc1c[nH]c2ccccc12)C(=O)N[C@H](CC(C)C)C(=O)N[C@@H](Cc1c[nH]c2ccccc12)C(=O)N[C@@H](C(=O)N[C@@H](Cc1c[nH]c2ccccc12)C(=O)NCCO)C(C)C)[C@H](C)O)C(C)C)C(C)C
MIC (Listeria monocytogenes; 10403S): 2.1 µM (≈ 3.93 µg/mL)

c1ccc2c(c1)CCNC2c1c[nH]c2ncccc12 (centres unmarked)
relative fluorescence index (Escherichia coli; efflux pump inhibition; AG100 AcrAB-TolC expressing; 50 µM; relative to: untreated cells): 0.33

NS(=O)(=O)c1nnc(NC(=O)C2CCCCC2)s1
MIC (Enterococcus faecalis; NR-31971): 1.72 µM (≈ 0.499 µg/mL)

Fc1cccc(COc2ccc(Nc3ncnc4ccc(-c5cccc(CN6CCCCC6)c5)cc34)cc2Cl)c1
EC50 (Trypanosoma brucei; parasite growth): 650 nM

CNC1CCC(CC(O)Cn2c3ccccc3c3ccccc32)CC1 (centres unmarked)
IC50 (Plasmodium; parasite growth): 162 nM

c1ccc2c(c1)CCNC2c1c[nH]c2ccncc12 (centres unmarked)
relative fluorescence index (Staphylococcus aureus; efflux pump inhibition; ATCC 25923; 50 µM; relative to: untreated cells): -0.17

CC(C)C[C@@H](NC(=O)[C@H](C)NC(=O)CNC(=O)[C@@H](NC=O)C(C)C)C(=O)N[C@@H](C)C(=O)N[C@@H](C(=O)N[C@H](C(=O)N[C@@H](C(=O)N[C@@H](Cc1c[nH]c2ccccc12)C(=O)N[C@H](CC(C)C)C(=O)N[C@@H](Cc1c[nH]c2ccccc12)C(=O)N[C@H](CC(C)C)C(=O)N[C@@H](Cc1c[nH]c2ccccc12)C(=O)N[C@H](CC(C)C)C(=O)N[C@@H](Cc1c[nH]c2ccccc12)C(=O)NCCO)C(C)C)C(C)C)C(C)C
MIC (Listeria monocytogenes; 10403S): 4.3 µM (≈ 8.09 µg/mL)

CC1(N(CC(=O)O)CC(=O)O)CN(CC(=O)O)CCN(CC(=O)O)C1
protonation constant (log) (pH-potentiometry, refers to: logK1H; 0.1 M KCl; 25 °C): 11.2

O=c1ccc(OCCCN2CCCCC2)nn1-c1ccc(Cl)c(Cl)c1
inhibition (OPRM1 (Homo sapiens, UniProt P35372); 1.0 µM): 25.3 ± 2.4%

c1ccc(COc2ccc(Nc3ncnc4ccc(-c5cccc(N6CCOCC6)c5)cc34)cc2)cc1
EC50 (Trypanosoma brucei; parasite growth): 180 nM

c1ccc2c(c1)CCCNC2c1c[nH]c2ncccc12 (centres unmarked)
relative fluorescence index (Escherichia coli; efflux pump inhibition; AG100A AcrAB-TolC deleted; 50 µM; relative to: untreated cells): 0.57

CCCCCCCCCC(=O)NC1CCCC1
inhibition (Pseudomonas aeruginosa; rhamnolipid production; PAO1; 250 µM): 85%

[2H]C([2H])([2H])C1(C([2H])([2H])[2H])NC(=O)N(c2ccc(F)c(C(C)(F)F)c2)C1=O
ED50 (Schistosoma mansoni; juvenile, infected mice; single dose): 18 mg/kg

CCOC(=O)[C@H]1c2c(ccc3ccccc23)O[C@@H]2c3[nH]c4ccccc4c3CCN21
relative fluorescence index (Staphylococcus aureus; efflux pump inhibition; ATCC 25923; 50 µM; relative to: untreated cells): 0.01

CC(C)(C)OCc1ccc(-c2ccc3ncnc(Nc4ccc(OCc5cccc(F)c5)c(Cl)c4)c3c2)cc1
EC50 (Trypanosoma brucei; parasite growth): 220 nM

O=C(NC1CCc2ccccc21)C1CCN(c2ncccc2-c2nc(-c3ccccc3)no2)CC1 (centres unmarked)
IC50 (Plasmodium; parasite growth): 1110 nM

O=S(=O)(c1ccc(-c2ccc3ncnc(Nc4ccc(OCc5cccc(F)c5)c(Cl)c4)c3c2)cc1)N1CCOCC1
EC50 (Trypanosoma brucei; parasite growth): 1300 nM

NS(=O)(=O)c1nnc(NC(=O)CCc2ccccc2)s1
MIC (Enterococcus faecalis; NR-31971): 0.384 µM (≈ 0.12 µg/mL)

O=C(CCCCCONC(=O)c1ccc2cc[nH]c2c1)NO
IC50 (Plasmodium falciparum; parasite growth; 3D7): 90 nM and < 100 nM

O=C(C=C(O)C(F)(F)C(F)(F)F)c1ccc(NC2CC2)nc1
Ki (Plasmodium falciparum formate-nitrite transporter; binding, FCCS; isolated protein): 10 ± 2 nM

CC1CCCC(CCC(O)Cn2c3ccccc3c3ccccc32)N1C (centres unmarked)
IC50 (Plasmodium; parasite growth): 4970 nM

NS(=O)(=O)c1nnc(NC(=O)CN2CCOCC2)s1
MIC (Enterococcus faecalis; NR-31972): 13 µM (≈ 4 µg/mL)

O=C1C=C(Br)/C(=C/Br)O1
inhibition (Pseudomonas aeruginosa; exoprotease production; PAO1; 10 µM): 80%

O=C(CCn1c(=O)c2ccccc2n(Cc2ccccc2F)c1=O)N1CCc2ccccc2C1
IC50 (Plasmodium; parasite growth): 18100 nM

O=S(=O)(c1ccc(-c2ccc3ncnc(Nc4ccc(OCc5cccc(F)c5)cc4)c3c2)cc1)N1CCOCC1
EC50 (Trypanosoma brucei; parasite growth): 650 nM

c1ccc2c(c1)CCNC2c1c[nH]c2cnccc12 (centres unmarked)
relative fluorescence index (Escherichia coli; efflux pump inhibition; AG100A AcrAB-TolC deleted; 50 µM; relative to: untreated cells): 0.53

O=C(NCc1ccc2c(c1)OCO2)C1CCN(c2ncnc3onc(-c4cccc(F)c4)c23)CC1
IC50 (Plasmodium; parasite growth): 980 nM

c1cnc2[nH]cc(C3NCCc4sccc43)c2c1 (centres unmarked)
relative fluorescence index (Escherichia coli; efflux pump inhibition; AG100A AcrAB-TolC deleted; 50 µM; relative to: untreated cells): 0.29

CC(=O)Nc1nnc(S(N)(=O)=O)s1
MIC (Enterococcus faecium; HM-965): 9 µM (≈ 2 µg/mL)
